Results from different studies.
Each line is one published result; not all experiments were run side by side. Several values in a cell are separate wells, animals, samples, runs or records. ± marks the error that the study gave.

Compound = [2H]C([2H])([2H])C([2H])([2H])C([2H])([2H])OC(C(=O)OC1CCNCC1)(c1ccccc1)c1ccccc1; test system = healthy Japanese male subjects, plasma; conditions = oral, 12 mg once daily, day 16, fed, mean; measurement = Cmax; result = 136 ng/mL
Compound = CSCC[C@@H]1NC(=O)[C@@H]2CSSC[C@H](NC(=O)[C@H](CO)NC(=O)[C@H](C)N)C(=O)N[C@@H](CCCNC(=N)N)C(=O)N[C@@H]([C@@H](C)O)C(=O)N3CCC[C@H]3C(=O)N[C@@H](CCCCN)C(=O)N[C@@H](CC(=O)O)C(=O)N[C@H]3CSSC[C@H](NC(=O)[C@H](CCCCN)NC(=O)[C@H](CCCNC(=N)N)NC(=O)[C@H](CC(N)=O)NC1=O)C(=O)N[C@@H](CCCCN)C(=O)N[C@H]1CSSC[C@H](NC(=O)[C@@H]4CCCN4C(=O)[C@H](CC(=O)O)NC(=O)[C@H](C)NC3=O)C(=O)N[C@@H](C)C(=O)N[C@@H](CCCCN)C(=O)N[C@@H](CCC(=O)O)C(=O)N[C@@H]([C@@H](C)O)C(=O)NCC(=O)N[C@@H](CSSC[C@@H](C(N)=O)NC(=O)[C@H](CCCNC(=N)N)NC(=O)[C@H](CC(N)=O)NC1=O)C(=O)N1CCC[C@H]1C(=O)N[C@@H](Cc1ccc(O)cc1)C(=O)NCC(=O)N[C@@H](CCCCN)C(=O)N2; test system = DA rat, pristane-induced arthritis, serum; conditions = subcutaneous, 0.1 mg/kg every other day, end of 21-day trial; measurement = albumin; result = 3.04 g/dL
Compound = CSCC[C@H](NC(=O)CNC(=O)[C@H](CC(=O)O)NC(=O)[C@@H](NC(=O)[C@@H](NC(=O)[C@@H](NC(=O)CNC(=O)[C@H](CCC(=O)O)NC(=O)[C@H](CCSC)NC(=O)[C@H](CC(=O)O)NC(=O)[C@H](C)NC(=O)[C@H](C)NC(=O)[C@@H](NC(=O)[C@H](CO)NC(=O)[C@@H](N)CC(C)C)[C@@H](C)O)C(C)C)C(C)C)[C@@H](C)O)C(=O)N[C@@H](C)C(=O)N[C@@H](CO)C(=O)NCC(=O)N[C@@H](CC(C)C)C(=O)N[C@@H](CC(=O)O)C(=O)N[C@@H](CCCCN)C(=O)N[C@@H](CC(=O)O)C(=O)N[C@@H](Cc1ccc(O)cc1)C(=O)N[C@@H](CC(C)C)C(=O)N[C@@H](CCCCN)C(=O)N1CCC[C@H]1C(=O)N[C@@H](CC(=O)O)C(=O)N[C@@H](CC(=O)O)C(=O)O; test system = male CD-1 mice, serum; conditions = intravenous, 480 mg/kg; measurement = t1/2 gamma; result = 34.1 h
Compound = C[C@H]1C(OC(=O)C(C)(C)C)O[C@@H]2O[C@@]3(C)CC[C@H]4[C@H](C)CCC1[C@@]24OO3 (stereo partly drawn); test system = Tg(fli1:EGFP) zebrafish embryos; conditions = 25 µg/mL, up to 48 hpf; measurement = dead embryos; result = 9 count
Compound = CC[C@H](C)C(=O)N1CCC(NC(=O)Nc2ccc(OC(F)(F)F)c(F)c2)CC1; test system = human, plasma; conditions = oral, 8 mg, single dose, fed, healthy volunteers; measurement = CL/F; result = 1.91 L/h
Compound = CC(C)[C@H](NC(=O)CNC(=O)[C@H](CCC(N)=O)NC(=O)[C@H](C)N)C(=O)O; test system = human; conditions = 3 mg/kg single dose; measurement = subjects with moderate adverse events; result = 0%
Compound = COC(=O)C[C@H](NC(=O)[C@H](C)NC(=O)[C@@H](NC(=O)[C@H](CC(=O)OC)NC(=O)[C@@H](NC(=O)c1ccc2ccccc2n1)C(C)C)C(C)C)C(=O)COc1c(F)cccc1F; test system = rat pups; conditions = 1 mg/kg, 14 d; measurement = body weight; result = 62 ± 2.5 g
Compound = COc1cc(NC(=O)C(=O)c2c(C)n(Cc3ccc(Cl)cc3)c3ccc(C)cc23)ccn1; test system = male cynomolgus monkey, plasma; conditions = oral, 10 mg/kg; measurement = Tmax; result = 2 h and 4 h
Compound = CC(C)(CCCC/C=C/CCCCCC(C)(C)C(=O)O)C(=O)O; test system = beagle dog, plasma; conditions = oral, 5 mg/kg; measurement = AUC(0-t); result = 419 µg·h/mL
Compound = CC(=O)c1cccc(-c2cccc(OC(=O)NC3CCCCC3)c2)c1; test system = rat liver S9 fraction; conditions = added: NADPH-regenerating system; measurement = log hydrolysis rate constant; result = -1
Compound = C[C@H]1N=C(c2ccccc2F)c2cc(Br)ccc2-n2cnc(C(=O)OC3O[C@H](C(=O)O)[C@@H](O)[C@H](O)[C@H]3O)c21 (stereo partly drawn); test system = mouse liver S9; measurement = glucuronide half-life; result = ≥ 8 h
Compound = CC(C)C[C@H](NC(=O)[C@H](CCCCN)NC(=O)[C@H](CCC(=O)O)NC(=O)[C@H](C)NC(=O)[C@@H](NC(=O)[C@H](CCCCN)NC(=O)[C@H](CC(=O)O)NC(=O)[C@H](Cc1ccc(O)cc1)NC(=O)[C@H](Cc1ccccc1)NC(=O)[C@H](C)NC(=O)[C@H](CCCCN)NC(=O)[C@H](CC(C)C)NC(=O)[C@H](Cc1c[nH]c2ccccc12)NC(=O)[C@@H](N)CC(=O)O)C(C)C)C(=O)N[C@@H](CCCCN)C(=O)N[C@@H](CCC(=O)O)C(=O)N[C@@H](C)C(=O)N[C@@H](Cc1ccccc1)C(=O)N1CCC[C@H]1C(=O)N[C@@H](CC(=O)O)C(=O)N[C@@H](Cc1c[nH]c2ccccc12)C(=O)N[C@@H](C)C(=O)N[C@@H](CCCCN)C(=O)N[C@@H](C)C(=O)N[C@@H](C)C(=O)N[C@@H](Cc1ccc(O)cc1)C(=O)N[C@@H](CC(=O)O)C(=O)N[C@@H](CCCCN)C(=O)N[C@@H](C)C(=O)N[C@@H](C)C(=O)N[C@@H](CCC(=O)O)C(=O)N[C@@H](CCCCN)C(=O)N[C@@H](C)C(=O)N[C@@H](CCCCN)C(=O)N[C@@H](CCC(=O)O)C(=O)N[C@@H](C)C(=O)N[C@@H](C)C(=O)O; test system = cynomolgus monkey male, plasma; conditions = intravenous infusion, 8 mg/kg every other day, day 27; measurement = half-life; result = 2.7 h
Compound = CC(C)C[C@H](NC(=O)[C@H](CCCNC(=N)N)NC(=O)[C@H](CCC(=O)O)NC(=O)CNC(=O)[C@H](CCCCN)NC(=O)[C@@H](NC(=O)[C@H](Cc1ccccc1)NC(=O)[C@H](Cc1c[nH]c2ccccc12)NC(=O)[C@H](CCCCN)NC(=O)[C@H](CCCCN)NC(=O)[C@H](Cc1c[nH]c2ccccc12)NC(=O)CN)[C@@H](C)O)C(=O)N[C@@H](CO)C(=O)N[C@@H](CCC(N)=O)C(=O)N[C@@H](CCCNC(=N)N)C(=O)N[C@@H](Cc1c[nH]cn1)C(=O)N[C@@H](Cc1ccccc1)C(=O)N[C@@H](C)C(=O)O; test system = zebrafish embryos; conditions = 1, 5, 25 µM, 4, 28, 52 hpf; measurement = toxicity; result = not toxic
Compound = [11CH3]n1c(=O)n(CCCO)c(=O)c2c1nc(Oc1cccc(OC(F)(F)F)c1)n2Cc1ccc(Cl)cc1; test = ex vivo biodistribution; test system = Sprague Dawley rat, blood; conditions = 5 min post injection; measurement = tracer uptake; result = 0.22 ± 0.05 %ID/g
Compound = CCc1noc(CC)c1C(=O)O[C@H]1C(C)=C[C@]23C(=O)[C@@H](C=C(CO)[C@@H](O)[C@]12O)[C@H]1[C@@H](C[C@H]3C)C1(C)C; test system = human, dermis, Franz diffusion cell; conditions = topical, 0.1% in hydroalcoholic gel, 21 h; measurement = dermal concentration; result = 690 ± 257 nM
Compound = CC(C)C[C@@H](/C=C/CC(=O)NC1CC(C)(C)N([O])C(C)(C)C1)NC(=O)OC(C)(C)C; test = metabolic stability; test system = male mouse, liver microsomes; conditions = 1 h; measurement = compound remaining; result = 15%
Compound = O=C(O[C@@H]1[C@@H](O)[C@H](Oc2cc(O)c3c(c2)O[C@H](c2ccccc2)CC3=O)O[C@@H]2COC(=O)c3cc(O)c(O)c(O)c3-c3c(cc(O)c(O)c3O)C(=O)O[C@@H]12)c1cc(O)c(O)c(O)c1; test system = healthy mouse; conditions = 25 µg/g; measurement = toxicity; result = not toxic
Compound = CC(C)C[C@H](NC=O)C(=O)N[C@@H](C)C(=O)N[C@@H](C)C(=O)N[C@@H](CC(=O)O)C(=O)N[C@@H](CC(C)C)C(=O)N[C@@H](CC(C)C)C(=O)N[C@@H](C)C(=O)N[C@@H](C)C(=O)N[C@@H](CC(C)C)C(=O)NCC(=O)N[C@@H](CC(=O)O)C(=O)N[C@@H](CC(C)C)C(=O)N[C@@H](CC(C)C)C(=O)N[C@@H](CCCCN)C(=O)N[C@@H](Cc1c[nH]c2ccccc12)C(=O)N[C@@H](CC(C)C)C(=O)N[C@@H](CC(C)C)C(=O)N[C@@H](CC(=O)O)C(=O)N[C@@H](C)C(=O)N[C@@H](CC(C)C)C(=O)N[C@@H](C)C(=O)N[C@@H](CCCCN)C(=O)N[C@@H](CC(C)C)C(=O)N[C@@H](C)C(=O)N[C@@H](CCCCN)C(=O)N[C@@H](CCCCN)C(=O)O (racemic); test = circular dichroism; test system = phosphate buffer 10 mM; conditions = 1 to 5 µM, pH 7.5, approximate; measurement = helicity; result = 59%
Compound = CCNc1cc2[o+]c3cc(NCC)c(C)cc3c(-c3ccccc3C(=O)OCCOCC[18F])c2cc1C; test = PET; test system = rat, liver; conditions = dose not given, 5 min p.i.; measurement = radioactivity concentration; result = 59 ± 2 kBq/cm³
Compound = COC(=O)C[C@](O)(CCCC(C)(C)OC(C)=O)C(=O)O[C@@H]1C(OC)=C[C@]23CCCN2CCc2cc4c(cc2[C@H]13)OCO4; test system = CD1 mouse, spleen; conditions = oral, 1 mg/kg, 0.5 h; measurement = tissue concentration; result = 289 ng/mL
Compound = CCc1c2c(nc3ccc(OC4OC(C(=O)O)C(O)C(O)C4O)cc13)-c1cc3c(c(=O)n1C2)COC(=O)C3(O)CC (stereo not drawn); test system = human patients, plasma; conditions = intravenous, 3 mg/m^2 of parent drug; measurement = Cmax; result = 9 ng/mL
